# Measurements pooled from the literature.
# A part holds a random share of what one study measured.

# Study 1 — technique: RNA Bind-n-Seq; molecule type: RNA; matrix: in vitro; concentration: 365 nM; baseline: no-protein control; direction: higher = stronger binding
# Target: RNA binding protein fox-1 homolog 2, RRM domain, GST-SBP tag (RBFOX2, Homo sapiens, UniProt O43251-10, residues 100-194)
# Setting: natural RNA segment, single round, ends assumed
# Construct (chain): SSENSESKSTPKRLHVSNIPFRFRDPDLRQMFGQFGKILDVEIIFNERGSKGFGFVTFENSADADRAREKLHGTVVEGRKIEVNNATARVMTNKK
Oligonucleotide,RBNS enrichment (R)
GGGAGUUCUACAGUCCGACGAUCAACACAGCCACACGCGCACACAAGUAUAAGACUUUUUGUAUUACUGCUCCCUACUUAACAUACUUGAAUUCUCAAAUUUCCUUUGGGGUAAAAAAAAAAAAAGGAUUUGAUGGAAUUCUCGGGUGCCAA,0.757
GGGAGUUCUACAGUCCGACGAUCAGCAGCUUUUGUGUCAUUCUCCCCACUUUAUUAGUUAAUUUAAAUUGGAAAAAACCCUCAAACUAAUAUUCUUGUCUGUUCCAGUCUUAUAAAUAAAACUUAUAAUGCAUUGGAAUUCUCGGGUGCCAA,1.44
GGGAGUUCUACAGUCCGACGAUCGCGAAAAUCCCGAUCACAUUGGACAUCGGCAAAGGCGUGCCAUAAAGAGCGGCCCACAGUCAUGCUACUCCCAUUUAGGAACAUGGGCUUACCAGCUCAAGACUUAUCUAUGGAAUUCUCGGGUGCCAA,0.358
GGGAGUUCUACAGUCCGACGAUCCUUUCUUUUGGUCCUUCCUGGAAUGAACAGGUUCCCUCCCUGCCACCUGUGAGGAGAGUUGGGGCCCAGCCGUCUUCCUGGCCUCCUUCCUUUCCUCGUGGCAGAGGCCUUGGAAUUCUCGGGUGCCAA,0.326
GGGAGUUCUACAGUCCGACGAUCGAGGUUGACCGGUAGACUGAAGAGGCCUUGAGAGCCUGGCCAGGUGGCUGUCCACGUGAGGUCAUAGUCACAGCAUGGAGGCCUUGAGAGCCUGGCCAGGUGGCCCUCCAUGGAAUUCUCGGGUGCCAA,0.478
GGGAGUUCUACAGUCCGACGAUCAACACUACUGACUUAGACUGCUGACUGCCAGAGGUAGCUACCCUCAUGCCAUCGCCAUGACCCCCCCUGGCAUGCCACCUCAGGGGCAUGCACCUUCAAGUGCCUUUCACUGGAAUUCUCGGGUGCCAA,0.505
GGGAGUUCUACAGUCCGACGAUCUGUCAUCUGAUGCAUUUGGACCAUAUGCUGCCAGACUGCAGAACGGGGGAGCCGGGGCUCAGGGCCCCUGACUGCAUGGUGCAUGAGUGAUCUCAGCCUAGCGAUGCCGCUGGAAUUCUCGGGUGCCAA,2.84
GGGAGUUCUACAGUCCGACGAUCGACUUCACUGCAUUAGACCCUAUAGCUGGUCUCACAAGACACUUUGUGCCCAGCUGUCACUCACUCAGCAGCUUCCUUGCAGCAGAGCAGGGCUGAGGGGAAGGGGCUAUUGGAAUUCUCGGGUGCCAA,0.546

# Study 2 — technique: RNA Bind-n-Seq; molecule type: RNA; matrix: in vitro; concentration: 200 nM; setting: whole 134-nt RNA, ends assumed; together with: 150 mM KCl; baseline: input library; direction: higher = stronger binding
# Target: Fragile X messenger ribonucleoprotein 1, C-terminal low-complexity region (Fmr1, Mus musculus, UniProt P35922)
Oligonucleotide,log2 enrichment
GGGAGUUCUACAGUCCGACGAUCAGUCCUGUGCUACACAUCGUAUGUACCGAAUCGGGAAAAGGGGAAAAGGGAAAAGGGAAAGUAUUAUGUUACGCCGUUCGGAUCUGCACUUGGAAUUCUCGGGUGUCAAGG,0.142
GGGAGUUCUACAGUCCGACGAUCACCAUGCAGGUGGGCAUCUUUGGUAAGUGGGGCAAGGGGGGGAUAGGGAGGGGGGUAACACUUUGGGAACAGGUGGUCCCAGGUCGUUUCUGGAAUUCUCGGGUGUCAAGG,0.776
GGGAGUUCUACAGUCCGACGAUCUCCUGUGCUACACAUCGUAUGUACCGAAUCGGCCCCCCGGGGCCCCCCGGCCCCCCGGGGAAAGUAUUAUGUUACGCCGUUCGGAUCUGCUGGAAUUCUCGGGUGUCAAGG,-0.431
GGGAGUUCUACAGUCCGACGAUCUAACUUUAGAGGAGGAUCUGAUGGAUAUGGCAGUGGACGUGGAUUUGGGGAUGGCUAUAAGGGGUAUGGAGGAGGACCUGGAGGUGGCAAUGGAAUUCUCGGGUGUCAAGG,0.294
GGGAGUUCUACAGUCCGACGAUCCACAGACAACACGCACGCACACAGACACAGAGGGAAGGGGUUGGGAUGGGGACAGGGUGCACAGCAGGGCGGGGUAGGACCCCAGCCCCUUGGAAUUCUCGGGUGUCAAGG,1.06
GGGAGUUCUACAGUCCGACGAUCCACAGACAACACGCACCCACACAGACACAGGGGGAAGGGGUUGGGAUGGGGACAGGGUGCACAGCAGGGCGGGGUAGGACCCCAGCCCCUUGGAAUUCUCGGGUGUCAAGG,1.3
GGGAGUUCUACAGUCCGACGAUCUCCUCAAGUCCUGUGCUACACAUCGUAUGUACCGAAUCGGGAGGAGGAGGGAAAGUAUUAUGUUACGCCGUUCGGAUCUGCACUUCCAGCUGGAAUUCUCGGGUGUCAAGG,-0.303
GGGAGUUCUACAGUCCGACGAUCAGUCCUGUGCUACACAUCGUAUGUACCGAAUCGUGUGUGUGUGUGUGUGUGUGUGUGAAAGUAUUAUGUUACGCCGUUCGGAUCUGCACUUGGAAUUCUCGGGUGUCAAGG,0.602
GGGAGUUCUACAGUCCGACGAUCUCCUGUGCUACACAUCGUAUGUACCGAAUCGGGAAAAAAAGGGUUUGGGAAAAAAAGGGAAAGUAUUAUGUUACGCCGUUCGGAUCUGCAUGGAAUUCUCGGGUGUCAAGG,-0.419

# Study 3 — technique: protein binding microarray; molecule type: double-stranded DNA, one strand shown; matrix: in vitro; concentration: not given; baseline: not given; direction: higher = stronger binding
# Target: Histone acetyltransferase KAT6A, winged helix 2, GST fusion (KAT6A, Homo sapiens, UniProt Q92794, residues 85-181)
# Setting: 8-mer, flanks averaged, mean of 2 arrays, mostly near background
# Residues (chain): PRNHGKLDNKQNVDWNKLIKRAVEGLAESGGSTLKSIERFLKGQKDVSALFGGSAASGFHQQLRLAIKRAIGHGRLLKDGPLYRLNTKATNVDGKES
Oligonucleotide,E-score
AGTCGGGG,-0.0453
GAGCTGCC,0.0451
ACTTTGTA,0.00342
CTGCAAGC,0.0593
GATTGAGA,-0.0613
GTCACGTA,-0.283
ACGGTATC,-0.0165
CAAATGAC,-0.115
CATGTTTC,0.163
AAAAATTG,-0.0922
ACGTTGAA,-0.0401
GAAGTCCC,-0.287
CCCCTTAG,-0.041
ACGGAGTA,0.141
TCAGGCCA,0.0149
GACGTAAC,-0.15
ATTCAGGG,0.0942
GTCTTCCA,0.0947

# Study 4 — technique: RNA Bind-n-Seq; molecule type: RNA; matrix: in vitro; concentration: not given; setting: RNA with constant flanks, ends assumed; baseline: input RNA pool; direction: higher = stronger binding
# Target: RING finger protein unkempt homolog, zinc fingers 1-6, GST-SBP tag (UNK, Homo sapiens, UniProt Q9C0B0, residues 30-357)
# Chain of UniProt Q9C0B0 (30-357, looked up): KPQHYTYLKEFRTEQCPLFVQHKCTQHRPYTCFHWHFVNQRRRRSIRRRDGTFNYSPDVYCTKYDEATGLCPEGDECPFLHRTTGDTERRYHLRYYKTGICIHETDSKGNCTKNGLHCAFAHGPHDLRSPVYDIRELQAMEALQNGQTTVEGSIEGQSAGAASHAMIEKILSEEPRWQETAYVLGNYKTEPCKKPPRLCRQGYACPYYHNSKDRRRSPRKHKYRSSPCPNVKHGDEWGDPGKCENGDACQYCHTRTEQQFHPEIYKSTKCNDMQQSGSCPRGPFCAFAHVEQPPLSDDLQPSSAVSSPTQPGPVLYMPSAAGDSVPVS
Oligonucleotide,bound/input enrichment [ratio]
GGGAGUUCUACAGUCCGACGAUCGGUCCACAUACUCCCCAUCGGGUGCCUGGACCUUGGGGUUCCCCCGAACCUUUUCUGCUCUACCGGCCAGCUCCACCAUCCUAUGGGAGGGGAGGGGAGGUCCGAGGAUCCUUGUACAGACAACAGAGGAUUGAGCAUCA,0.105
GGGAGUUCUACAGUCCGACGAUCCAUGCAUUUUAUUGGGGAUGGGAGGUUGGAAUAAUUUAUCCAAAUCUAAUGGUAUUAUUUCACCGGCUAAUCCAGUUUGUAUUUGAGUUAAAGAUCCCAGAGUGUAGUAAUUAAUUGCAGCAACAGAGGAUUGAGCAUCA,0.856
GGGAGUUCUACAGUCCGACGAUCCAUCAUCGGGUGGGCGAGACAGCCCCACCCAAUGCCUACACUGUCACUGACCUAGUGGAGUACCGCAUCGUGAUCCAGCAGCUCUCAAAUGGCAAAUGGGUCCCCUUUGAUGGCGAUGACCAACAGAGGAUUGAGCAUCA,0.0603
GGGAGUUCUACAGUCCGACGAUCCCUCUUCUGGCCUGCCUCCUUGGCAACGACAUAAUCCCAGAGGGCAUGUUUGAAAGCUUCCGGUACAAAUGCUUAUCGUCCUACACCUCUGUAAAAGAGAACUUUGACAAAAAAGGUAACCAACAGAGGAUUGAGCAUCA,0.0857
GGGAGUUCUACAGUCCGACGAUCCUAUACCUGAAACUCACAUUUGACCUCAUAGAGAAAGGCUACCUAGUGCUAAAGAGUUCCCGCUACAAAGUCGUUCCUGUUUCGCUCUCUGAGGUUUAUUUACUCCAGUGCAAUAUGAAGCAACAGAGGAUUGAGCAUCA,0.281
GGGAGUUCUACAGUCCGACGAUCUCUCUUCUCUUAAGUUAUGGUGCAGACCCAACACUGCUCAAUUGUCACAAUAAAAGUGCUACCGACUUGGCUCCCACACCACAGUUAAAAGAAAGAUUAGCAUAUGAAUUUAAAGGCCACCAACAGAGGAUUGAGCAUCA,5.81
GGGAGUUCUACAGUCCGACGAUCAUUCUCUACGACAAGGAUCAUUACAAGUUGGCUCUGGGGCAAAUAAAUAUUGCCAAAAAUUCCGUGGACAAUGUUGCUAAAGAUUAUGUGCGACUGAUGAAGUAUGGCGACUCUCUCUACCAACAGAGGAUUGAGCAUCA,0.142
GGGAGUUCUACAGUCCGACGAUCAGAUUCAAACCUGUGGUACCAUGGCCUCAUGUUGAAGGAGUAGAAGUGGACUUAGAGUCUAUCCGAAGAAUAAACAAGGCCAAAAAUGAACAAGAGCACCAUGCUGGAGGAGAUUCCCAGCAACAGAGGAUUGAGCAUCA,0.261

# For quick reference, copied from above (study 3):
Oligonucleotide,E-score
GAAGTCCC,-0.287
CCCCTTAG,-0.041
